Published values of several laboratories.
Compare with care: the assays were run in different laboratories. Values joined by “and” are separate records of one study, mostly repeats; a detail may differ. ± marks the error that the study gave.
Adhesin FmlH lectin domain: Adhesin FmlH, lectin domain (Escherichia coli, UniProt Q1RBS0)
USP51: Ubiquitin carboxyl-terminal hydrolase 51 (USP51, Homo sapiens, UniProt Q70EK9)
Chain of UniProt Q70EK9 (whole entry, looked up): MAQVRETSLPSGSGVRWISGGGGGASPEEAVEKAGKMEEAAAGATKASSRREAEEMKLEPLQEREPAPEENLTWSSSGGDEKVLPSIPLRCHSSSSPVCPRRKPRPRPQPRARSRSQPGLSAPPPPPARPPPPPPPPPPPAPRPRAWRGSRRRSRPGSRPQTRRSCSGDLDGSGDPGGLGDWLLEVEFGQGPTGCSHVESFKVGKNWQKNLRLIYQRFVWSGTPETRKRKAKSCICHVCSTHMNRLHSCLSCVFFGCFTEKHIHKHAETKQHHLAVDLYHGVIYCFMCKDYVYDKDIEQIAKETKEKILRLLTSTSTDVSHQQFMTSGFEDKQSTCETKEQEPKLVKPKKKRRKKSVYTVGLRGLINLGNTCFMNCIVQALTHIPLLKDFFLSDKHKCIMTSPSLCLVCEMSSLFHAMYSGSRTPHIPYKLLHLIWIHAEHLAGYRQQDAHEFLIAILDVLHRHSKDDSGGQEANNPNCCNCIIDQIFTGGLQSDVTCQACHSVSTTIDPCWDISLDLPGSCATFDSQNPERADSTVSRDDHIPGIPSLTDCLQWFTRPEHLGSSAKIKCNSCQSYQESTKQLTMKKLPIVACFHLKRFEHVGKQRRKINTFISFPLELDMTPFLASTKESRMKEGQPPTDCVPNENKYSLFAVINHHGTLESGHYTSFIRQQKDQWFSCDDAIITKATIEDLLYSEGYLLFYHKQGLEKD
PTGER4: Prostaglandin E2 receptor EP4 subtype (PTGER4, Homo sapiens, UniProt P35408)
Chain of UniProt P35408 (whole entry, looked up): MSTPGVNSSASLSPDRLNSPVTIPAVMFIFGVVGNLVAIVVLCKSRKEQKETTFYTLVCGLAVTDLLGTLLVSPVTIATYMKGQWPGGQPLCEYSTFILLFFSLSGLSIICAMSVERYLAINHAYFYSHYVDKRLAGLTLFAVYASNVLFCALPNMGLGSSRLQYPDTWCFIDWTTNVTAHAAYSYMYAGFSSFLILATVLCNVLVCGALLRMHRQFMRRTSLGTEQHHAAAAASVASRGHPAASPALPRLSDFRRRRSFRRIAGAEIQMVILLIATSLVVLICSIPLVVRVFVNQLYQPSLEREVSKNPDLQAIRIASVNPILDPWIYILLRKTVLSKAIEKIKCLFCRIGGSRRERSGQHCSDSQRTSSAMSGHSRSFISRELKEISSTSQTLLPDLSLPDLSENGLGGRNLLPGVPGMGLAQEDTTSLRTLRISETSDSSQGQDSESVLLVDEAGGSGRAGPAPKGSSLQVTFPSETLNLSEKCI
CAPN1: Calpain-1 catalytic subunit (CAPN1, Homo sapiens, UniProt P07384)
Chain of UniProt P07384 (whole entry, looked up): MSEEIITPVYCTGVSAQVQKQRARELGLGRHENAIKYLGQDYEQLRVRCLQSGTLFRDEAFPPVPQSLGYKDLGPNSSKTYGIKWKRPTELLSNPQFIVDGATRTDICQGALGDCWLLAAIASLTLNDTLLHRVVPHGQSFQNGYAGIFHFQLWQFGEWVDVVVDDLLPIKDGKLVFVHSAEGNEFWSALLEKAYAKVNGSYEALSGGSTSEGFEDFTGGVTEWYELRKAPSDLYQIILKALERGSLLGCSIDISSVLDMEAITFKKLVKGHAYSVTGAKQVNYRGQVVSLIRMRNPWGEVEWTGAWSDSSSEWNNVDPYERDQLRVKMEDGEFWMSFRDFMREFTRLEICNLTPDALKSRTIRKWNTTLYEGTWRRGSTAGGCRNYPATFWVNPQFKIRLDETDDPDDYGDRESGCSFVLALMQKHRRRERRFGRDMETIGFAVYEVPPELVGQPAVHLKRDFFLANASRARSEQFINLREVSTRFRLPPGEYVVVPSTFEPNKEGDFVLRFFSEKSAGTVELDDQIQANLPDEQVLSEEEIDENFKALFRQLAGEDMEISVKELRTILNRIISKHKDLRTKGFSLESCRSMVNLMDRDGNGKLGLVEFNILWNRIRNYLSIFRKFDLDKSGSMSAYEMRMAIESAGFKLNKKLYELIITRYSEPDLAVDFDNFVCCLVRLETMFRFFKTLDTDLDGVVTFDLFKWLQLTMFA
MAL12: Alpha-glucosidase MAL12 (MAL12, Saccharomyces cerevisiae S288c, UniProt P53341)
Chain of UniProt P53341 (whole entry, looked up): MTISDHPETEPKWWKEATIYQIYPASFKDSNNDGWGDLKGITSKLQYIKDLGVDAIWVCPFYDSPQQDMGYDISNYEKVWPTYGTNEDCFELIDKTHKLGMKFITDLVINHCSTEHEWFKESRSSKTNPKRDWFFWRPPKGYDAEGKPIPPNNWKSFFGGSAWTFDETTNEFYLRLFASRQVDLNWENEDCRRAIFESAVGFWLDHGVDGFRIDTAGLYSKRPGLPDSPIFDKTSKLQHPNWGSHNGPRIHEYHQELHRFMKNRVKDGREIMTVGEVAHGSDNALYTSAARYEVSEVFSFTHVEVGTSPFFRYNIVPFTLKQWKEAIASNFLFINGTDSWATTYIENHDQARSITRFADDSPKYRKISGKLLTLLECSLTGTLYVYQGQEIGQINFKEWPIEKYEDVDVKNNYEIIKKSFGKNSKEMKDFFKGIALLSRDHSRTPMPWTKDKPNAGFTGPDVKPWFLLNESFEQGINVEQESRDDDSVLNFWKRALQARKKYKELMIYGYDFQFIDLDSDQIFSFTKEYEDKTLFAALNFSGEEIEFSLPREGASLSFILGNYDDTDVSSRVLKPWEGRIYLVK
PTGS1: Prostaglandin G/H synthase 1 (PTGS1, Ovis aries, UniProt P05979)
Chain of UniProt Q9UM07 (whole entry, looked up): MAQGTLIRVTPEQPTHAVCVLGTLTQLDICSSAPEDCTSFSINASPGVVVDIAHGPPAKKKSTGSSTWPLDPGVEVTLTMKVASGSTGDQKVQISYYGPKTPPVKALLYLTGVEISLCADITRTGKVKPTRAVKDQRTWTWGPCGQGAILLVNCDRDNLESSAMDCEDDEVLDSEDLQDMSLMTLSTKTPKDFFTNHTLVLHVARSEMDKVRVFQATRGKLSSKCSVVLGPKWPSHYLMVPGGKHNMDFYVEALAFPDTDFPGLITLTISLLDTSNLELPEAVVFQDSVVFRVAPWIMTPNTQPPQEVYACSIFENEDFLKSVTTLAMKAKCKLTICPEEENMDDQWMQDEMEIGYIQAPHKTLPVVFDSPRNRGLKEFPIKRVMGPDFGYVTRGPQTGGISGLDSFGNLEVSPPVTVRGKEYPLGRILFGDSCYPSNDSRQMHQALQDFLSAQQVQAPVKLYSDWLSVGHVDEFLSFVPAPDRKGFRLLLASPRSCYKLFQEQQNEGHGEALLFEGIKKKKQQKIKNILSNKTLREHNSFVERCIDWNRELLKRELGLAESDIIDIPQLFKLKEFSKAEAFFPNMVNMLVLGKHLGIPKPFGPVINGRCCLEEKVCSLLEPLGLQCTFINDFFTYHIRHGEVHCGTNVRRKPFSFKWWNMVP
Chain of UniProt P05979 (whole entry, looked up): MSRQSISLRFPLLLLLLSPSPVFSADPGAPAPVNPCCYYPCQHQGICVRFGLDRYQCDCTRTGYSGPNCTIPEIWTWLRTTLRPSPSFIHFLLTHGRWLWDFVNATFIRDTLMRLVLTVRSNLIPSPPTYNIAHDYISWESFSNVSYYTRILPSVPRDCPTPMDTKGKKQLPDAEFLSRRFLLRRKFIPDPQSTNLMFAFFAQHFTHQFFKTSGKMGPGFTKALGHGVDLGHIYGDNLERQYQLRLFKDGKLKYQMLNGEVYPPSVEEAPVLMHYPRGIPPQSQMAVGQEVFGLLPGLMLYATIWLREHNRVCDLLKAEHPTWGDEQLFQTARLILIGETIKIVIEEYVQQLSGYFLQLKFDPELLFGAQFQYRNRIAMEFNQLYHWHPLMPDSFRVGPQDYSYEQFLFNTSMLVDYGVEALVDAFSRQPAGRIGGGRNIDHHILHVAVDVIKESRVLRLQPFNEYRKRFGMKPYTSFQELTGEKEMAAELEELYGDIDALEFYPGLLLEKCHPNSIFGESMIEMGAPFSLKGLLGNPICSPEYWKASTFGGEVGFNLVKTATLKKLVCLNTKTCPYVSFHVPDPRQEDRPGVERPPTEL
Chain of UniProt P08887 (whole entry, looked up): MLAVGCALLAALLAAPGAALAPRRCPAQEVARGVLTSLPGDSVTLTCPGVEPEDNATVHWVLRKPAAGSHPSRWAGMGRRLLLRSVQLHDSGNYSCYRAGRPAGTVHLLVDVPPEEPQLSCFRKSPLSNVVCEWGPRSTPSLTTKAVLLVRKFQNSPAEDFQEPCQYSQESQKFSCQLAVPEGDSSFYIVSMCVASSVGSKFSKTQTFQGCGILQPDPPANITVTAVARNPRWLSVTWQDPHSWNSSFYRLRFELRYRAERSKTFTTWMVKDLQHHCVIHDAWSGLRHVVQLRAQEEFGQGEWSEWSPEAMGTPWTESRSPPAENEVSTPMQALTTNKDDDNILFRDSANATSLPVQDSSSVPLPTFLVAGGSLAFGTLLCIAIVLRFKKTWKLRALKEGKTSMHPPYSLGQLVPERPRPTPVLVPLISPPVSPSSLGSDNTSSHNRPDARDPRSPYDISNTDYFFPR
Chain of UniProt P46663 (whole entry, looked up): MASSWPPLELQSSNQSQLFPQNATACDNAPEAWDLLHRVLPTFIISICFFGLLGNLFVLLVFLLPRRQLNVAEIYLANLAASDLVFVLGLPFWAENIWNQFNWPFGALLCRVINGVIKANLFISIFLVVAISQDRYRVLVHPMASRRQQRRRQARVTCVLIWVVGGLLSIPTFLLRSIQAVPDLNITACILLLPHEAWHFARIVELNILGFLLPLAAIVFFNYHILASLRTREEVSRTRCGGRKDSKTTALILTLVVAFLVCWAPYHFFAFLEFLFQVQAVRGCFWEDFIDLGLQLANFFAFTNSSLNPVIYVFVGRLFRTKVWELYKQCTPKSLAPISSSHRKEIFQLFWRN
Chain of UniProt P08908 (whole entry, looked up): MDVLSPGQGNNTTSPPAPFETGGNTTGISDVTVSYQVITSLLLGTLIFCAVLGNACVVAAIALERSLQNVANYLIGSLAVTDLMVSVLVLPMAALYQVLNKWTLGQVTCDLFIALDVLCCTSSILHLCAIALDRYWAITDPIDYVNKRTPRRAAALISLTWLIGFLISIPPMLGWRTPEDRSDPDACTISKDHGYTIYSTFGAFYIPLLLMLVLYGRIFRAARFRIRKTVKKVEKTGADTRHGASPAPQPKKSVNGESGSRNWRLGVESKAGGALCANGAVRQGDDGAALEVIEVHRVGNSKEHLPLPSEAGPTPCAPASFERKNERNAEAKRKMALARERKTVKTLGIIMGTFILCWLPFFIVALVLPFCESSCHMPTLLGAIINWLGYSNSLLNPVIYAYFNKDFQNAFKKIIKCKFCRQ

| Structure (SMILES) | target | assay | system | conditions | inhibition |
| --- | --- | --- | --- | --- | --- |
| COc1ccccc1O[C@@H]1O[C@H](CO)[C@H](O)[C@H](O)[C@H]1O | Adhesin FmlH lectin domain | binding to desialylated mucin, ELISA competition | UPEC UTI89 | 10 µM, together with: desialylated bovine submaxillary mucin | 55.7 ± 1.6% |
| O=C(Nc1ccc(OCc2cc(C(=O)NCCc3ccccc3)no2)cc1)c1ccc(Cl)cc1 | USP51 | enzyme activity, inhibitor |  | 1 µM | 17.1 ± 6.2% |
| COc1ncc2nc(C)n(Cc3ncc(S(N)(=O)=O)cc3F)c2c1-c1ccccc1 | Potassium voltage-gated channel subfamily KQT member 1, with KCNE1 (KCNQ1, Homo sapiens, UniProt P51787) | antagonist, cell-based |  | 10 µM | 11.5% |
| CN(Cc1ccc(/C=C/C(=O)NO)cc1)CC12CC3CC(CC(C3)C1)C2 | human D4.4 receptor | antagonist radioligand binding |  | 0.05 µM | -4% |
| Cn1ccc2cc(-n3c(=O)[nH]c4sc5c(c4c3=O)CCCC5)ccc21 | PTGER4 | cell-free assay |  | 10 µM | 17% |
| CO[C@@H](C)c1c(NC(=O)Nc2cnc(-n3nccn3)c(C(F)(F)F)c2)cnc2sc(C)nc12 | PTGER4 | ligand displacement, radioligand |  | 10 µM | -2.4% |
| C[C@@H](O)[C@H](NC(=O)c1ccc(OCc2ccccc2)cc1)C(=O)N[C@@H](CCc1ccccc1)C(=O)NCc1ccccc1Cl | CAPN1 | enzyme activity, inhibitor |  | 100 µM | 55% |
| CCOc1cc(C(=O)Nc2ccc3c(c2)N(C(=O)c2ccccc2)CCC3)cc(OCC)c1OCC | USP51 | enzyme activity, inhibitor |  | 1 µM | 3.9 ± 3.8% |
| NC(=O)CC[C@H](N)C(=O)N[C@@H](CC(N)=O)C(=O)N[C@@H](CC(=O)O)C(=O)N[C@@H](Cc1ccccc1)C(=O)O | ACE (Homo sapiens, UniProt P12821) | enzyme activity, inhibitor |  | 1.4 mM | 77% |
| O=C(CN1CCO[C@@H](COc2cccc(Cl)c2)C1)N1CCc2ccccc21 | HTR5A (Homo sapiens, UniProt P47898) | radioligand binding |  | concentration not given, together with: [3H]LSD | 28.9% |
| O=c1ccc2ccc(O)c(Cn3cc4ccccc4n3)c2o1 | MAL12 | inhibitor |  | 25 µM | < 0% |
| N#Cc1ccc(O[C@@H]2O[C@H](CO)[C@H](O)[C@H](O)[C@H]2O)cc1 | Adhesin FmlH lectin domain | binding to desialylated bovine submaxillary mucin, inhibitor, ELISA competition | UPEC UTI89 | 1 µM | 9.5 ± 3.7% |
| C/C1=C\CC/C(C)=C/CC(C)(C)/C=C/C1 | Trpv1 (Rattus norvegicus, UniProt O35433, S512A/T550A/Y511A) | ion current, inhibitor, outside-out patch clamp |  | 10 µM, triple vanilloid-site mutant, together with: pH 5.5 activation | 49 ± 3% |
| CCOc1ccc(C(=O)Nc2nnc(C3CC(=O)N(c4ccc(SC)cc4)C3)o2)cc1OCC (centres unmarked) | USP51 | enzyme activity, inhibitor |  | 1 µM | 0% |
| Cc1c(C)c2ccc(O[C@@H]3O[C@H](CO)[C@H](O)[C@H](O)[C@H]3O)cc2oc1=O | Adhesin FmlH lectin domain | binding to desialylated mucin, ELISA competition | UPEC UTI89 | 100 µM | 89.2 ± 0.4% |
| CC(C)Cc1ccc(-c2nn(-c3ccc(S(C)(=O)=O)cc3)cc2C=NN=c2[nH]c(-c3ccc(Br)cc3)cs2)cc1 | PTGS1 | enzyme activity |  | 0.01 µM | 3.44% |
| O=C1c2sc(-c3ccc(N4CCC(CO)CC4)nc3F)nc2CCN1c1cccnc1 | ADRA2B (Homo sapiens, UniProt P18089) | ligand displacement, radioligand |  | 1 µM | -7% |
| CCn1cc(-c2cccc(C(F)(F)F)c2)c2sc(C(=N)NC3CCS(=O)(=O)CC3)cc2c1=O | Bromodomain-containing protein 3, BD2 (BRD3, Homo sapiens, UniProt Q15059) |  |  | 1 µM | -5.06% |
| C[Si]1(C[C@H](CN)CC(=O)O)CCCC1 | BDKRB1 (Homo sapiens, UniProt P46663) | ligand displacement, radioligand |  | 70 µM | 18% |
| C[C@H](NC(=O)[C@H](CC(=O)NCC(C)(C)C)NC(=O)CCc1ccccc1)C(=O)NCc1ccccc1Cl | CAPN1 | enzyme activity, inhibitor |  | 100 µM | 7% |
| Cc1ccccc1CC(=O)N1CCCC1c1nnc(C(=O)Nc2ccc3c(c2)OCO3)s1 (centres unmarked) | USP51 | enzyme activity, inhibitor |  | 1 µM | 2.6 ± 0.6% |
| CC(C)NC(=O)[C@H](CCc1ccccc1)NC(=O)[C@H](CC(=O)NCC(C)(C)C)NC(=O)CCc1ccccc1 | CAPN1 | enzyme activity, inhibitor |  | 100 µM | 15% |
| Cc1ccccc1O[C@H]1O[C@H](CO)[C@H](O)[C@H](O)[C@H]1O | Adhesin FmlH lectin domain | binding to desialylated mucin, ELISA competition | UPEC UTI89 | 100 µM | 30 ± 5.4% |
| O=C(Nc1ccc(C(F)F)cc1)[C@H](CC1CCCCC1)Nc1nn2c(=O)ccnc2s1 | Tyrosine-protein phosphatase non-receptor type 4 (Homo sapiens, UniProt P29074) | enzyme activity, inhibitor |  | 10 µM | -6% |

| Structure (SMILES) | target | assay | system | conditions | inhibition |
| --- | --- | --- | --- | --- | --- |
| COC(=O)c1cccc(-c2ccccc2O[C@H]2O[C@H](CO)[C@H](O)[C@H](O)[C@H]2O)c1 | Adhesin FmlH lectin domain | binding to desialylated mucin, ELISA competition | UPEC UTI89 | 100 µM | 13.1 ± 7.6% |
| Cc1ccc(CN(C)C(=O)C(CCc2ccccc2)NC(=O)C(NC(=O)c2ccc(OCc3ccccc3)cc2)C(C)O)cc1 (centres unmarked) | CAPN1 | enzyme activity, inhibitor |  | 100 µM | -11% |
| CCOc1cc(C(=O)Nc2ccc3sc(C)nc3c2)cc(OCC)c1OCC | USP51 | enzyme activity, inhibitor |  | 1 µM | 13 ± 2% |
| O=C1c2sc(-c3ccc(N4CCC(F)C4)nc3F)nc2CCN1c1cccnc1 (centres unmarked) | HTR1A (Homo sapiens, UniProt P08908) | ligand displacement, radioligand |  | 1 µM | -32% |
| Cc1[nH]nc(-c2ccc(O)cc2O)c1-c1nc2ccccc2s1 | USP51 | enzyme activity, inhibitor |  | 1 µM | 36.2 ± 6.3% |
| C[Si](C)(C)C[C@@H](CN)CC(=O)O | Interleukin-6 receptor subunit alpha (IL6R, Homo sapiens, UniProt P08887) | binding, radioligand binding |  | 75 µM | 5% |
| Nc1ccccc1C(=O)NCCCN1CCN(Cc2ccccc2)CC1 | DRD2 (Homo sapiens, UniProt P14416) | enzyme activity, inhibitor |  | 10 µM | 15.3% |
| COc1cc(Nc2ccn3ncc(-c4cccc(Cl)c4)c3n2)cc(OC)c1OC | crk3, with CYC6 (Leishmania mexicana, UniProt O15851) | IMAP fluorescence polarisation |  | 30 µM, with L. major CYC6 | 25% |
| Cc1ccc(-c2nn(-c3ccc(S(C)(=O)=O)cc3)cc2/C=N/N=C2/NC(=O)CS2)cc1 | EGFR (Homo sapiens, UniProt P00533, L858R) | kinase activity, inhibitor |  | 10 µM | 88.2% |
| Cl.Cl.N[C@@H](C(=O)N1CCCC1)C1CCN(c2nccc3c(-c4ncc(Cl)cc4Cl)cccc23)CC1 | PADI4 (Homo sapiens, UniProt Q9UM07) | enzyme activity, inhibitor |  | 80 µM, together with: Ca2+ 0.4 mM | 82.9% and 57.5% and 54.6% |
| O=C(NS(=O)(=O)c1cccs1)c1cc2ccccc2n1Cc1ccc(Br)c2ccccc12 | XDH (Bos taurus, UniProt P80457) | enzyme activity, inhibitor, absorbance |  | 10 µM | 23.6% |
| CS(=O)(=O)c1ccc(-n2cc(C=NN=c3[nH]c(-c4ccc(Br)cc4)cs3)c(-c3ccc([N+](=O)[O-])cc3)n2)cc1 (mixture of isomers) | PTGS1 | enzyme activity |  | 100 µM | 81% |
| Cc1cc(=O)oc2cc(O[C@@H]3O[C@H](CO)[C@H](O)[C@H](O)[C@H]3O)ccc12 | Adhesin FmlH lectin domain | binding to desialylated mucin, ELISA competition | UPEC UTI89 | 100 µM | 85.3 ± 0.7% |
| CS(=O)(=O)c1ccc(-n2cc(C=NN=c3[nH]c(-c4ccc([N+](=O)[O-])cc4)cs3)c(-c3ccc(Br)cc3)n2)cc1 | PTGS1 | enzyme activity |  | 10 µM | 65.8% |
| COc1cc(OC)cc(O[C@@H]2O[C@H](CO)[C@H](O)[C@H](O)[C@H]2O)c1 | Adhesin FmlH lectin domain | binding to desialylated mucin, ELISA competition | UPEC UTI89 | 100 µM | 76.4 ± 2.4% |
| N#C/C(=C\c1ccc(O)c(O)c1)C(=O)c1ccc(O)c(O)c1 | Genome polyprotein, NS3 helicase domain (Hepatitis C virus genotype 1b, UniProt Q9WMX2) | DNA binding, inhibitor | hepatitis C virus | 100 µM, together with: Cy5-dT15 DNA | 100% |
| COc1ccc(OC)c(NC(=O)c2ccc(OC)nc2OC)c1 | USP51 | enzyme activity, inhibitor |  | 1 µM | 10 ± 2% |
| O=Cc1ccc(CO)n1Cc1ccc(O)cc1 | MAL12 | inhibitor |  | 100 µg/mL, 0.4167 h, together with: p-nitrophenyl glucoside substrate | 41.5 ± 1.93% |
| CC(C)Cn1c(SCC(=O)N2CCc3ccccc3C2)nc2cc(Cl)ccc2c1=O | HRH3 (Homo sapiens, UniProt Q9Y5N1) | ligand displacement, radioligand |  | 10 µM | -9% |
| C/C=C/C(=O)Nc1ccc2nc(NCCCCCN(C)C)nc(NCCCCCCN(C)C)c2c1 | EZH2 (Homo sapiens, UniProt Q15910) | enzyme activity, inhibitor, radiometric |  | 10 µM | 35% |
| Nc1ccc(O[C@@H]2O[C@H](CO)[C@H](O)[C@H](O)[C@H]2O)cc1 | Adhesin FmlH lectin domain | binding to desialylated mucin, ELISA competition | UPEC UTI89 | 100 µM | 65.1 ± 1.4% |
| COc1ccc(C2NCCc3cc(O)c(O)cc32)cc1 (centres unmarked) | MAL12 | enzyme activity, inhibitor |  | 100 µM, DMSO solvent, together with: pNPG substrate | 42.2 ± 2.56% |
| CS(=O)(=O)c1ccc(-n2cc(C=NN=c3[nH]c(-c4ccc(Br)cc4)cs3)c(-c3ccc(Br)cc3)n2)cc1 | PTGS1 | enzyme activity |  | 0.01 µM | 8.33% |

Excerpt of the above:
| Structure (SMILES) | target | assay | system | conditions | inhibition |
| --- | --- | --- | --- | --- | --- |
| Cc1ccccc1O[C@H]1O[C@H](CO)[C@H](O)[C@H](O)[C@H]1O | Adhesin FmlH lectin domain | binding to desialylated mucin, ELISA competition | UPEC UTI89 | 100 µM | 30 ± 5.4% |
| N#Cc1ccc(O[C@@H]2O[C@H](CO)[C@H](O)[C@H](O)[C@H]2O)cc1 | Adhesin FmlH lectin domain | binding to desialylated bovine submaxillary mucin, inhibitor, ELISA competition | UPEC UTI89 | 1 µM | 9.5 ± 3.7% |
| CCOc1ccc(C(=O)Nc2nnc(C3CC(=O)N(c4ccc(SC)cc4)C3)o2)cc1OCC (centres unmarked) | USP51 | enzyme activity, inhibitor |  | 1 µM | 0% |
| CCOc1cc(C(=O)Nc2ccc3c(c2)N(C(=O)c2ccccc2)CCC3)cc(OCC)c1OCC | USP51 | enzyme activity, inhibitor |  | 1 µM | 3.9 ± 3.8% |
| CCOc1cc(C(=O)Nc2ccc3sc(C)nc3c2)cc(OCC)c1OCC | USP51 | enzyme activity, inhibitor |  | 1 µM | 13 ± 2% |
| CS(=O)(=O)c1ccc(-n2cc(C=NN=c3[nH]c(-c4ccc([N+](=O)[O-])cc4)cs3)c(-c3ccc(Br)cc3)n2)cc1 | PTGS1 | enzyme activity |  | 10 µM | 65.8% |
| Cc1cc(=O)oc2cc(O[C@@H]3O[C@H](CO)[C@H](O)[C@H](O)[C@H]3O)ccc12 | Adhesin FmlH lectin domain | binding to desialylated mucin, ELISA competition | UPEC UTI89 | 100 µM | 85.3 ± 0.7% |
| CCn1cc(-c2cccc(C(F)(F)F)c2)c2sc(C(=N)NC3CCS(=O)(=O)CC3)cc2c1=O | Bromodomain-containing protein 3, BD2 (BRD3, Homo sapiens, UniProt Q15059) |  |  | 1 µM | -5.06% |
